Measured values pooled from the literature.
Compare with care: the assays were run in different laboratories. “And” joins repeats or separate records; there may be more than shown.
PARP2: Poly [ADP-ribose] polymerase 2 (PARP2, Homo sapiens, UniProt Q9UGN5)
Sequence of UniProt Q9UGN5 (whole entry, looked up): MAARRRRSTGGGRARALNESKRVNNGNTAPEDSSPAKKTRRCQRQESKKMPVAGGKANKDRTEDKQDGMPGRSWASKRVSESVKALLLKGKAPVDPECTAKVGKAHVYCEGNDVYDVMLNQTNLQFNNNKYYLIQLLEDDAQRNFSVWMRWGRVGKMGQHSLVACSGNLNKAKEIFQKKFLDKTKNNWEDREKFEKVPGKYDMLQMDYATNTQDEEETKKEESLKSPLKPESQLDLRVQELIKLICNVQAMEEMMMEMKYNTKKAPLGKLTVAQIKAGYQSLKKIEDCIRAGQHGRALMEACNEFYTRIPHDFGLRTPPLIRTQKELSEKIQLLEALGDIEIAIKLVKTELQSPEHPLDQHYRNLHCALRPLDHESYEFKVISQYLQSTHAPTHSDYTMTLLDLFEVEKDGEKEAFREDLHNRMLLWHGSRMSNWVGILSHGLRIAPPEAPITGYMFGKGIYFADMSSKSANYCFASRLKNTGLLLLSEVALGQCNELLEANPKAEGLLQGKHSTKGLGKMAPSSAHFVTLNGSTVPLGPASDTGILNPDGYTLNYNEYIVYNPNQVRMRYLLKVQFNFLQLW
CES2: Cocaine esterase (CES2, Homo sapiens, UniProt O00748)
Sequence of UniProt O00748 (whole entry, looked up): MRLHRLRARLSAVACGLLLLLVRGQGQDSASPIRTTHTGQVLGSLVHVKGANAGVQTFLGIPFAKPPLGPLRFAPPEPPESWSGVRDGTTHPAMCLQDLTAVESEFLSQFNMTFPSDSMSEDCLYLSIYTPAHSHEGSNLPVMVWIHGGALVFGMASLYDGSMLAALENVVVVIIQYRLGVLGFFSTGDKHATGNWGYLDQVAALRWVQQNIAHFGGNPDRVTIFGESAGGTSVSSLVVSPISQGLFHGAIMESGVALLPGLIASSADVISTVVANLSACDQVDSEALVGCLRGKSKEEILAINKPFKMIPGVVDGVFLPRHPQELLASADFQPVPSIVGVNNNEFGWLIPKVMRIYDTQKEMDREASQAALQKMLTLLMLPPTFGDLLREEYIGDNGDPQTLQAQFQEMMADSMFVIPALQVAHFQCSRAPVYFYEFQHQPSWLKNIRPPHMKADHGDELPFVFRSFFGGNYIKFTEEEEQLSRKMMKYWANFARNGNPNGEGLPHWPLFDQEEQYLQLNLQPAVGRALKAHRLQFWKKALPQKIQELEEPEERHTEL
HDAC8: Histone deacetylase 8 (HDAC8, Homo sapiens, UniProt Q9BY41)
Sequence of UniProt Q9BY41 (whole entry, looked up): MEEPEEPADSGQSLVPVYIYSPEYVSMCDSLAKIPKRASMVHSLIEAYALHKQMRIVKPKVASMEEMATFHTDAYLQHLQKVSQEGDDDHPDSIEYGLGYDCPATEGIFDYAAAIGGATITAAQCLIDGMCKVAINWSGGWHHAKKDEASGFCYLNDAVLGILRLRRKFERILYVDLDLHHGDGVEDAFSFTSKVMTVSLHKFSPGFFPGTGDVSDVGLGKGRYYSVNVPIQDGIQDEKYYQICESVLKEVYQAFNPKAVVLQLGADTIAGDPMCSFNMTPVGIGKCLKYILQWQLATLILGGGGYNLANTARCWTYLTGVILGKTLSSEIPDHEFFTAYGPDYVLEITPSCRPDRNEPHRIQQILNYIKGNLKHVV
PIK3CB: Phosphatidylinositol 4,5-bisphosphate 3-kinase catalytic subunit beta isoform (PIK3CB, Homo sapiens, UniProt P42338)
Sequence of UniProt P42338 (whole entry, looked up): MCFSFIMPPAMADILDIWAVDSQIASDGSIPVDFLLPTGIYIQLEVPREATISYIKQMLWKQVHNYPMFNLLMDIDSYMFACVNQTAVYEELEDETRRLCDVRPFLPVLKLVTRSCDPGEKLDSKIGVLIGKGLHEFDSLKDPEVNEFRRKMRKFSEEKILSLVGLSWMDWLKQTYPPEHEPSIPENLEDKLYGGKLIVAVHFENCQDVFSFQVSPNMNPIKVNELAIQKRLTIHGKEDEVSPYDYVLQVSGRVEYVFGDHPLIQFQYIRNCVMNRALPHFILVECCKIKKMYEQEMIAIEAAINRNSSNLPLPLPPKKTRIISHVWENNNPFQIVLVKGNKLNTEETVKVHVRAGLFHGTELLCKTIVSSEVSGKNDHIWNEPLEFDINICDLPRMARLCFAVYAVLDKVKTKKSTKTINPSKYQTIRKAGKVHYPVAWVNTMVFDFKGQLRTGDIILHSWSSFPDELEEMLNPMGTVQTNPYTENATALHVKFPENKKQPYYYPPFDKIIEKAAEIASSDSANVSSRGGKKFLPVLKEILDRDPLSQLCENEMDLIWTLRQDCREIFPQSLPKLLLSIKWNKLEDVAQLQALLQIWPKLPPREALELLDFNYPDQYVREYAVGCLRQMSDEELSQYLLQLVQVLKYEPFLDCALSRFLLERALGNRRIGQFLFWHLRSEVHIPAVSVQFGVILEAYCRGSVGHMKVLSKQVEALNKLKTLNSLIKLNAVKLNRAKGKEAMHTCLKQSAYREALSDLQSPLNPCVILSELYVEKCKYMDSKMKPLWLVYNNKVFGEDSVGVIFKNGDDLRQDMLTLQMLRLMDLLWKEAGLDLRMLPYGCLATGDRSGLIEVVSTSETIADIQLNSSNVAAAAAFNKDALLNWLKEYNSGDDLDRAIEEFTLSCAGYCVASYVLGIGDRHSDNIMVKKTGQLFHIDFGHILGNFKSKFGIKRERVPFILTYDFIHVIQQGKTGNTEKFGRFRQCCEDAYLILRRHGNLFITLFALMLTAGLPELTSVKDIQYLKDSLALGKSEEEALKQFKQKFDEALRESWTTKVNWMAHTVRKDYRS
DRD3: D(3) dopamine receptor (DRD3, Homo sapiens, UniProt P35462)
Sequence of UniProt P35462 (whole entry, looked up): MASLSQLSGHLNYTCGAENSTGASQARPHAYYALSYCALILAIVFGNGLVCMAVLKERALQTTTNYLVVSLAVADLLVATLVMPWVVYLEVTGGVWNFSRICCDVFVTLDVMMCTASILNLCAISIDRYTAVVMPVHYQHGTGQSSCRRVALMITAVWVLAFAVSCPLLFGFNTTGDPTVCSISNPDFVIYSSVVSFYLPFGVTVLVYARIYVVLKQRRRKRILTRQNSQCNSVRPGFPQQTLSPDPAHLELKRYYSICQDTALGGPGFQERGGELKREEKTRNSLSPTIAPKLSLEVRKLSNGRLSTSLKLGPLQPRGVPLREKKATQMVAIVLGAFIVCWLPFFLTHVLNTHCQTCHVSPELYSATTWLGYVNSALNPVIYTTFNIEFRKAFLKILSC
HDAC6: Protein deacetylase HDAC6 (HDAC6, Homo sapiens, UniProt Q9UBN7)
Sequence of UniProt Q02127 (whole entry, looked up): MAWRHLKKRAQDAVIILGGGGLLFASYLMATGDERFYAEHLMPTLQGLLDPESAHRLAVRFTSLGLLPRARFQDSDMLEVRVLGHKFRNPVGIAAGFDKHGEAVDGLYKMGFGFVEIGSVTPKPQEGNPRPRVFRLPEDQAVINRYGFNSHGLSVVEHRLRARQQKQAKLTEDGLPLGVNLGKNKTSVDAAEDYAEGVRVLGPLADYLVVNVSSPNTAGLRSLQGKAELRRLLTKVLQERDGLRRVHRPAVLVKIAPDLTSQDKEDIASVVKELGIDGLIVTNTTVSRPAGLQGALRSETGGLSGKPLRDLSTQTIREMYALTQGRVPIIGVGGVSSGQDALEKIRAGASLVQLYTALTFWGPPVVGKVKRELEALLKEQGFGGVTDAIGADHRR
Sequence of UniProt Q9UBN7 (whole entry, looked up): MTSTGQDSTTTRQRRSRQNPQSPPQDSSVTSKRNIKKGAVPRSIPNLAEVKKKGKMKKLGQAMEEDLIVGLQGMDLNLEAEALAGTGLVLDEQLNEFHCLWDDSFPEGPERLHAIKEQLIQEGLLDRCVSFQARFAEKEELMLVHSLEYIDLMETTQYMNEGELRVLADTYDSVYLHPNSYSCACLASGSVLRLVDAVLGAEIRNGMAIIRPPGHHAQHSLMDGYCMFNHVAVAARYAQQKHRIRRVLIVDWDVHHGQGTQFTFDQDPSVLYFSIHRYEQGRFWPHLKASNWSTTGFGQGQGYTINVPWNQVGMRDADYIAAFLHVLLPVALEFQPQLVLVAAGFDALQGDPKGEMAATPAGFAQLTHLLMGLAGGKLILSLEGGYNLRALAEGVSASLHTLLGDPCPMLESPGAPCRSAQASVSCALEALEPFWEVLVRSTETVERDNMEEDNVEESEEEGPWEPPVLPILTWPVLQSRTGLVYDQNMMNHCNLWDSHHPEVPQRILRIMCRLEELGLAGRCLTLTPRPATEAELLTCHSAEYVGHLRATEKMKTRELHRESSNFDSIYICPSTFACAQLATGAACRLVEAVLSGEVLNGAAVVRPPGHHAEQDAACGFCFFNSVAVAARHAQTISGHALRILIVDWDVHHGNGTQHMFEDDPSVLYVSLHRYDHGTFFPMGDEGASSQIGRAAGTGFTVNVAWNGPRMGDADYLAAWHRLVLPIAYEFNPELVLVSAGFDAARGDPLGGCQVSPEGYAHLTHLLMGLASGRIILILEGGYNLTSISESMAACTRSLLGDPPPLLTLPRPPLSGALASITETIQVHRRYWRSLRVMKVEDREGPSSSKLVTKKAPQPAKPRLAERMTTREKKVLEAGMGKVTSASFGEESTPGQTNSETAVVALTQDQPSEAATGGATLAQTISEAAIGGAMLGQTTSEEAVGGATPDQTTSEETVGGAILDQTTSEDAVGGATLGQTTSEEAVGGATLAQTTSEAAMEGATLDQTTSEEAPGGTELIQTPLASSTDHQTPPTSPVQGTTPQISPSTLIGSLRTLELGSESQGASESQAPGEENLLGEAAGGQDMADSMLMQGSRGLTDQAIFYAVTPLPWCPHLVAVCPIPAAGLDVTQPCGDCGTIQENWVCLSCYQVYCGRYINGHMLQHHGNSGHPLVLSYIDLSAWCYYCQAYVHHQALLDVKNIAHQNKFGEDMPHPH
Sequence of UniProt P0DMS8 (whole entry, unmodified, looked up): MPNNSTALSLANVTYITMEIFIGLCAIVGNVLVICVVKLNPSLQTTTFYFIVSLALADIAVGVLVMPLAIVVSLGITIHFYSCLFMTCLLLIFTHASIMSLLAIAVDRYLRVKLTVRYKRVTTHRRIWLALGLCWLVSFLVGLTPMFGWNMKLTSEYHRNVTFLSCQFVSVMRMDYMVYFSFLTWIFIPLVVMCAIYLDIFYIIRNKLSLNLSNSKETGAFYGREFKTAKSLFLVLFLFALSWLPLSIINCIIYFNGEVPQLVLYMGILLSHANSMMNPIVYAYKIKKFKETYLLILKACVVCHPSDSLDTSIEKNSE

Cc1ccccc1Cn1nnc2c3ccc(F)cc3c(=O)[nH]c21  IC50 (PARP2; enzyme activity, inhibitor): > 10 µM
COc1cc(-c2cncc3c2CN(C)Cc2cc(N4CCNCC4)ccc2-3)cc(OC)c1OC  remaining activity (CAMK1D (Homo sapiens, UniProt Q8IU85); enzyme activity, inhibitor; 1 µM): 106%
COc1cc2c(N3CCN(C(=O)Nc4ccc(OC(C)C)cc4)CC3)ncnc2cc1OCCCN1CCCCC1  IC50 (CES2; enzyme activity, inhibitor, fluorescence; with preincubation): > 100 µM
O=C(NO)c1cccc(OS(=O)(=O)Oc2ccc(Oc3ccccc3)cc2)c1  IC50 (HDAC8; enzyme activity, inhibitor, fluorescence): 1.59 µM
C1=C/COCc2cc(ccc2OCCN2CCCC2)Nc2nccc(n2)-c2cccc(c2)COC/1  remaining binding (KIT (Homo sapiens, UniProt P10721, V559D/V654A); binding; 0.1 µM): 74%
Nc1ccn([C@@H]2O[C@H](CO)[C@@H](O)C2(F)F)c(=O)n1  viability (MCF7; cell growth or viability, MTT; 5 µg/mL, 48 h): 26.1%
Cc1nc(Nc2ccc3c(c2)/C(=C/c2ccccc2)C(=O)N3C)c2ccccc2n1  IC50 (PIK3CB; enzyme activity, inhibitor, ADP detection): 0.49 µM
Cc1[nH]c(C)c(S(=O)(=O)Nc2ccc(C(F)(F)F)c(Cl)c2)c1C(=O)N1CCCC1  IC50 (DRD3; G protein activation, antagonist, BRET): 2.2 µM
COc1cc2c(cc1OC)C(=O)/C(=C/c1ccc(Cl)cc1C)C2  IC50 (CES2; enzyme activity, inhibitor, fluorescence; with preincubation): > 100 µM
CCOC(=O)c1ccccc1-c1c2ccc(=O)cc-2oc2cc(OCCCn3nnnc3C(C3CC3)N3CCSC3)ccc12 (centres unmarked)  IC50 (ALOX15 (Homo sapiens, UniProt P16050); enzyme activity, inhibitor, absorbance): > 100 µM
Cc1ccc(Cn2nnc3c4ccccc4c(=O)[nH]c32)cc1  IC50 (PARP2; enzyme activity, inhibitor): > 10 µM
NC(=O)c1ccc(C(=O)NOCc2cccc(Cl)c2)cc1  IC50 (SIRT6 (Homo sapiens, UniProt Q8N6T7); enzyme activity, inhibitor, fluorescence): 5.87 µM
CSc1ccc(NS(=O)(=O)c2c(C)[nH]c(C)c2C(=O)N2CCC(F)(F)C2)cc1Cl  IC50 (DRD3; β-arrestin recruitment, antagonist): 7.8 µM
O=C(/C=C/c1cccc(OS(=O)(=O)Oc2ccccc2)c1)NO  IC50 (HDAC6; enzyme activity, inhibitor, fluorescence): 0.614 µM
CN(C)c1ncnc2c1ncn2[C@@H]1O[C@H](CO)[C@@H](O)[C@H]1O  EC50 (ADORA3 (Homo sapiens, UniProt P0DMS8, L264F); G protein activation, agonist): 66.5 µM
Cc1noc(NS(=O)(=O)c2ccc(N=NN(O)c3ccccc3)cc2)c1C  inhibition (ABTS scavenging; 300 µg/mL): 99.9%
O=C(NO)c1cc(F)cc(OS(=O)(=O)Oc2ccc(C(F)(F)F)cc2)c1  IC50 (HDAC8; enzyme activity, inhibitor, fluorescence): 3.13 µM
C[C@@H](Oc1cc(-c2cnn(C3CCNCC3)c2)cnc1N)c1c(Cl)ccc(F)c1Cl  IC50 (CES2; enzyme activity, inhibitor, fluorescence; with preincubation): 23.7 µM
CN1CCN(c2ccc(Nc3ncc4cc(C#N)c(=O)n(C5CCCC5)c4n3)cc2)CC1  IC50 (ACVR1B (Homo sapiens, UniProt P36896); enzyme activity, inhibitor): 8.59 µM
Cc1ccc(Cn2nnc3c4cc(C)ccc4c(=O)[nH]c32)cc1  IC50 (PARP2; enzyme activity, inhibitor): > 10 µM
Cc1[nH]c(C)c(S(=O)(=O)Nc2ccc(I)c(Cl)c2)c1C(=O)N1CCC(F)(F)C1  IC50 (DRD3; β-arrestin recruitment, antagonist): 5 µM
O=C1Nc2ccccc2C1=Nc1ccccc1I  IC50 (PIK3CB; enzyme activity, inhibitor, ADP detection): 0.127 µM
O=C(NO)c1cncc(OS(=O)(=O)Oc2ccc3ccccc3c2)c1  IC50 (HDAC8; enzyme activity, inhibitor, fluorescence): 0.422 µM
O=c1[nH]c2c(nnn2Cc2ccccc2C(F)(F)F)c2ccc(F)cc12  IC50 (PARP2; enzyme activity, inhibitor): > 10 µM
Cc1[nH]c(C)c(S(=O)(=O)Nc2ccc(C(F)(F)F)c(Cl)c2)c1C(=O)N1C[C@@H](F)[C@@H](F)C1  IC50 (DRD3; β-arrestin recruitment, antagonist): 2.8 µM
Nc1ccccc1NC(=O)c1ccc(CNc2ccc(NC3=C(Cl)C(=O)c4cccnc4C3=O)cc2)cc1  IC50 (HDAC1 (Homo sapiens, UniProt Q13547); enzyme activity, inhibitor): 0.0675 µM
O=C(NO)c1cncc(OS(=O)(=O)Oc2ccc(-n3ccnc3)cc2)c1  IC50 (HDAC8; enzyme activity, inhibitor, fluorescence): 0.665 µM
Cc1cc([C@@H](C)Nc2ccccc2C(=O)O)c2nc(N3CCC(F)(F)CC3)c(C#N)c(=O)n2c1  remaining binding (MAP2K2 (Homo sapiens, UniProt P36507); binding, competition with immobilised ligand; 10 µM): 97%
C=CC(=O)N1CCC(COCC(=O)N2CCN(c3nc(-c4cnc(N)nc4C(F)F)nc(N4CCOC[C@@H]4C)n3)CC2)CC1  remaining binding (HIPK1 (Homo sapiens, UniProt Q86Z02); binding, competition with immobilised ligand; 1 µM): 96%
O=C(C1CCCCC1)N1CC(=O)N2CCc3ccccc3C2C1 (centres unmarked)  IC50 (CES2; enzyme activity, inhibitor, fluorescence; with preincubation): > 100 µM
Cc1cc(C)c(OS(=O)(=O)Oc2cccc(C(=O)NO)c2)c(C)c1  IC50 (HDAC6; enzyme activity, inhibitor, fluorescence): 0.557 µM
Cc1cc(Oc2ncccc2CN2CCN(c3ccccc3C(F)(F)F)CC2)ccc1-c1c(C)c(=O)[nH]c(=O)n1C  Ki (ADRA1A (Homo sapiens, UniProt P35348); ligand displacement, radioligand): 1.52 µM
Cc1cc(OS(=O)(=O)Oc2ccccc2)cc(C(=O)NO)c1  IC50 (HDAC8; enzyme activity, inhibitor, fluorescence): 6.09 µM
Cc1[nH]c(C)c(S(=O)(=O)Nc2ccc(C(F)(F)F)c(Cl)c2Cl)c1C(=O)N1CCC(F)(F)C1  IC50 (DRD3; G protein activation, antagonist, BRET): 0.045 µM
O=C(NO)c1cc(F)cc(OS(=O)(=O)Oc2ccccc2)c1  IC50 (HDAC8; enzyme activity, inhibitor, fluorescence): 1.07 µM
O=C1C(=Nc2ccc(Cl)cc2Br)c2ccccc2N1Cc1ccc([N+](=O)[O-])cc1  IC50 (PIK3CB; enzyme activity, inhibitor, ADP detection): 0.0363 µM
Cc1ccc(CNS(=O)(=O)c2c(C)[nH]c(C)c2C(=O)N2CCCC2)cc1Cl  IC50 (DRD3; β-arrestin recruitment, antagonist): 56 µM
CCn1cnc2c([C@@](O)(CC)c3ccc(C(F)(F)F)nc3)n(C)nc2c1=O  IC50 (DHODH (Homo sapiens, UniProt Q02127); enzyme activity, inhibitor): > 30 µM and 45 µM
CNc1ncc2c(/C=C/C(=O)N3CCC(OC)CC3)nn(Cc3cccc(C(F)(F)F)c3)c2n1  remaining activity (CAMKK2 (Homo sapiens, UniProt Q96RR4); enzyme activity, inhibitor, radiometric; 1 µM): 77%
Cc1ccc(NS(=O)(=O)c2c(C)[nH]c(C)c2C(=O)N2CCC(F)(F)C2)cc1N(C)C  IC50 (DRD3; β-arrestin recruitment, antagonist): 48 µM
COc1cccc(Cn2nnc3c4ccc(F)cc4c(=O)[nH]c32)c1  IC50 (PARP2; enzyme activity, inhibitor): > 10 µM
COc1cc2c(cc1OC)C(=O)/C(=C/c1ccccc1C)C2  IC50 (CES2; enzyme activity, inhibitor, fluorescence; with preincubation): 0.61 µM
c1ccc(Cc2[nH]nc(-c3ccccn3)c2-c2ccnc3ccccc23)cc1  IC50 (YCK2 (Candida albicans, UniProt A0A1D8PKB4); enzyme activity, inhibitor, ADP detection): > 4 µM and 4.7 µM
FC(F)OC(Cl)C(F)(F)F (centres unmarked)  IC50 (CBS (Homo sapiens, UniProt P35520); enzyme activity, inhibitor): 2 µM
Cc1nc(Nc2ccc3c(c2)/C(=C/c2ccccc2C)C(=O)N3)c2ccccc2n1  IC50 (PIK3CB; enzyme activity, inhibitor, ADP detection): 0.0715 µM
Cc1nc(Nc2ncc(C(=O)Nc3c(C)cccc3Cl)s2)cc(N2CCN(CCO)CC2)n1  IC50 (CES2; enzyme activity, inhibitor, fluorescence; with preincubation): 51 µM
CCCCC(=O)Nc1ccc(-c2ccc3ncn(CCC)c(=O)c3c2)cn1  remaining binding (PRKCH (Homo sapiens, UniProt P24723); binding, competition with immobilised ligand; 0.5 µM): 80%
O=C1C(=Nc2ccc(Cl)cc2)c2ccccc2N1Cc1ccc(Br)cc1  IC50 (PIK3CB; enzyme activity, inhibitor, ADP detection): 0.0672 µM
Cc1[nH]c(C)c(S(=O)(=O)Nc2ccc(C(F)(F)F)c(Br)c2)c1C(=O)N1CCCC1  IC50 (DRD3; β-arrestin recruitment, antagonist): 4.9 µM
Cc1cc(NS(=O)(=O)c2ccc(N=NN(O)c3ccccc3)cc2)no1  inhibition (ABTS scavenging; 240 µg/mL): 91.3%

Repeated from above:
CCn1cnc2c([C@@](O)(CC)c3ccc(C(F)(F)F)nc3)n(C)nc2c1=O  IC50 (DHODH (Homo sapiens, UniProt Q02127); enzyme activity, inhibitor): > 30 µM and 45 µM
O=C(NO)c1cncc(OS(=O)(=O)Oc2ccc3ccccc3c2)c1  IC50 (HDAC8; enzyme activity, inhibitor, fluorescence): 0.422 µM
O=C(NO)c1cncc(OS(=O)(=O)Oc2ccc(-n3ccnc3)cc2)c1  IC50 (HDAC8; enzyme activity, inhibitor, fluorescence): 0.665 µM
C1=C/COCc2cc(ccc2OCCN2CCCC2)Nc2nccc(n2)-c2cccc(c2)COC/1  remaining binding (KIT (Homo sapiens, UniProt P10721, V559D/V654A); binding; 0.1 µM): 74%
COc1cc2c(cc1OC)C(=O)/C(=C/c1ccc(Cl)cc1C)C2  IC50 (CES2; enzyme activity, inhibitor, fluorescence; with preincubation): > 100 µM
Cc1cc(Oc2ncccc2CN2CCN(c3ccccc3C(F)(F)F)CC2)ccc1-c1c(C)c(=O)[nH]c(=O)n1C  Ki (ADRA1A (Homo sapiens, UniProt P35348); ligand displacement, radioligand): 1.52 µM
